Measurements gathered from unrelated publications.
Numbered parts are unrelated; each lists some results of a single study.
Chain of UniProt Q9BZL6 (whole entry, looked up): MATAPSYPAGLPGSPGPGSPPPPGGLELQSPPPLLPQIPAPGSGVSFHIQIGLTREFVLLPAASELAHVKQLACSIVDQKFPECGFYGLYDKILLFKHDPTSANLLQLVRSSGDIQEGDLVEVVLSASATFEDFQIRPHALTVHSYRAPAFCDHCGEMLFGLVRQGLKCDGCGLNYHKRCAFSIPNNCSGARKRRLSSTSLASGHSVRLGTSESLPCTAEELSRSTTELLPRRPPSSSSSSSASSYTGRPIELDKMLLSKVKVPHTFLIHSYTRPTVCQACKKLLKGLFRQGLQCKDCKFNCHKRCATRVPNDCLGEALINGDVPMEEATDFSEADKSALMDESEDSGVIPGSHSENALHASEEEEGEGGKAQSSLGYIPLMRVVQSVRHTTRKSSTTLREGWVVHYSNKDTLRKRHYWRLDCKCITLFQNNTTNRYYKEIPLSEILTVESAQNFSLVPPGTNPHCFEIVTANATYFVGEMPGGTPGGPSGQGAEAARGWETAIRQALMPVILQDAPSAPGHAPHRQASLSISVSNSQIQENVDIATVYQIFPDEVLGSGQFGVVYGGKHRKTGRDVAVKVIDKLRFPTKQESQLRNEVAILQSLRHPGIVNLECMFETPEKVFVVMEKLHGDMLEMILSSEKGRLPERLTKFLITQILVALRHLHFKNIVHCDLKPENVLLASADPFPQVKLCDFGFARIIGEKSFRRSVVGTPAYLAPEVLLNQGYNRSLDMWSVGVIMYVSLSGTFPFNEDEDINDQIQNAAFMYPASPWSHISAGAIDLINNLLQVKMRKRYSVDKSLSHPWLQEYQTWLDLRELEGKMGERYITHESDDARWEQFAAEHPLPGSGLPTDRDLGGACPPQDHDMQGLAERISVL

Block 1 — target: UBE2H UBC core domain (UniProt P62256); method: yeast two-hybrid; medium: yeast; setting: mostly zero background; baseline: not given; direction: higher = stronger interaction
Chain of UniProt P62256 (whole entry, looked up): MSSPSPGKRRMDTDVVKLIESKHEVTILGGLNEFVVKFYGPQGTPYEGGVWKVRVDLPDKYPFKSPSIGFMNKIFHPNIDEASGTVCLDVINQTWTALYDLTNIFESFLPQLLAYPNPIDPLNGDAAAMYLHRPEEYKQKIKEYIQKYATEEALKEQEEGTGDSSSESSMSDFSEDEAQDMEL
B1: SH3RF1 RING domain (UniProt Q7Z6J0); chain DESALLDLLECPVCLERLDASAKVLPCQHTFCKRCLLGIVGSRNELRCPECRTLVGSGVEEL
B2: UBOX5 RING domain (UniProt O94941); chain EQPGSILGPECASCKRVFSPYFKKEPVYQLPCGHLLCRPCLGEKQRSLPMTCTACQRPVASQDVLR
B3: RNF19A RING domain (UniProt Q9NV58); chain ISKQIGDFIECPLCLLRHSKDRFPDIMTCHHRSCVDCLRQYLRIEISESRVNISCPECTERFNPHDIR
B4: ZMIZ2 RING domain (UniProt Q8NF64); chain GTIPGTPGPNGEDGVEQTAIKVSLKCPITFRRIQLPARGHDCRHIQCFDLESYLQLNCERGTWRCPVCNKTALLEGLEVDQYMLGILIYIQNSDYEEITIDPTCSWK
B5: RFWD3 RING domain (UniProt Q6PCD5); chain ASMDEEEGDTCTICLEQWTNAGDHRLSALRCGHLFGYRCISTWLKGQVRKCPQCNKKARHSDIVV
`B1 (SH3RF1 RING domain)`: “lacZ reporter activity” 0.
`GSRLQEINDVCAICYHEFTTSARITPCNHYFHALCLRKWLYIQDTCPMCHQKVYIEDDIK (RNF139 RING domain (UniProt Q8WU17))`: “lacZ reporter activity” 0.
`B2 (UBOX5 RING domain)` — result for “lacZ reporter activity”: 0.
For `GSDDEEIPFKCFICRQSFQNPVVTKCRHYFCESCALQHFRTTPRCYVCDQQTNGVFNPA (RNF113A RING domain (UniProt O15541))`, “lacZ reporter activity” read 0.
`KLRKLKEAMLCMVCCEEEINSTFCPCGHTVCCESCAAQLQSCPVCRSRVEHVQHVY (MYLIP RING domain (UniProt Q8WY64))`: “lacZ reporter activity” 0.
`B3 (RNF19A RING domain)` — result for “lacZ reporter activity”: 0.
`B4 (ZMIZ2 RING domain)` — result for “lacZ reporter activity”: 0.
`B5 (RFWD3 RING domain)`: “lacZ reporter activity” 0.

Block 2 — method: RNA Bind-n-Seq; form: RNA; medium: in vitro; tested at: 20 nM; setting: 6-mer, flanks averaged, single round; together with: 150 mM KCl; baseline: input library; direction: higher = stronger binding
Target: TAR DNA-binding protein 43, full length, His tag (TARDBP, Homo sapiens, UniProt Q13148, residues 1-414)
For `UCUACU`, “6-mer enrichment (R)” read 0.545.
Under “6-mer enrichment (R)”, `ACGUAG` is recorded as 0.858.
`AAUUUG` — result for “6-mer enrichment (R)”: 0.697.
For `AUGCCC`, “6-mer enrichment (R)” read 0.657.
Under “6-mer enrichment (R)”, `UUGAAA` is recorded as 0.681.
`GGGGUA`: “6-mer enrichment (R)” 3.78.
`ACCGUC` — result for “6-mer enrichment (R)”: 0.615.
Under “6-mer enrichment (R)”, `GACGGC` is recorded as 1.48.

Block 3 — method: protein-binding microarray; form: double-stranded DNA, one strand shown; medium: in vitro; tested at: not given; direction: higher = stronger binding
Target: Myc proto-oncogene protein, bHLH-zipper, MAX partner unstated (MYC, Homo sapiens, UniProt P01106, residues 368-449)
Chain of UniProt P01106 (368-449, looked up): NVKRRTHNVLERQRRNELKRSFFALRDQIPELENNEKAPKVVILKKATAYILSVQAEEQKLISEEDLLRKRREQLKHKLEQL
Setting: k-mer, scored over probes, only values ≥0.25
The E-score of `CCGCGAGG` is reported as 0.365.
For `ACGCACAC`, the E-score was 0.345.
The E-score of `ATAGCACG` is reported as 0.373.
`CCCCGGCA` has an E-score of 0.253.
`CACGCCAC` has an E-score of 0.402.
With `CACACGGG` the E-score was 0.3.
The E-score of `GTGCATGA` is reported as 0.353.
With `CACGAGCA` the E-score was 0.305.

Other studies, line by line
For Cc1c(C(=O)O)cc(-c2ccc(C3CCNCC3)cc2)c2ccc(-c3ccc(C(F)(F)F)cc3)cc12, the remaining binding was 100% (Serine/threonine-protein kinase D2 (PRKD2, Homo sapiens, UniProt Q9BZL6); binding, competition with immobilised ligand; 1 µM).

Repeated from above (block 3):
`CACGCCAC` has an E-score of 0.402.
With `CACACGGG` the E-score was 0.3.
The E-score of `GTGCATGA` is reported as 0.353.
